Experimental data pooled from the literature.
Lines come from different studies, so protocols differ. “And” joins repeats or separate records; there may be more than shown. Numbers after ± are the reported error.
GLP1R: Glucagon-like peptide 1 receptor (GLP1R, Homo sapiens, UniProt P43220)
UniProt P07741, sequence (whole entry, looked up): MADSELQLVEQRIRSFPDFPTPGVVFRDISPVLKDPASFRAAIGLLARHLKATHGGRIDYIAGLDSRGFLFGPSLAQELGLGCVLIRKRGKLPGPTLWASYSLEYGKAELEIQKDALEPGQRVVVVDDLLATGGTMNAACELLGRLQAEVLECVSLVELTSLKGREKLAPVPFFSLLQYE
UniProt Q16774, sequence (whole entry, looked up): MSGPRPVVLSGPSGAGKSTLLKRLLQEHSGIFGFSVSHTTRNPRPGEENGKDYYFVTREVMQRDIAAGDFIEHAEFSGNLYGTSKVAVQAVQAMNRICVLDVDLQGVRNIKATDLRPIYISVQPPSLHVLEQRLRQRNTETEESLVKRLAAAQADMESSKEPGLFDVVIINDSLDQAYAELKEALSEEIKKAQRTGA
UniProt P48736, sequence (whole entry, looked up): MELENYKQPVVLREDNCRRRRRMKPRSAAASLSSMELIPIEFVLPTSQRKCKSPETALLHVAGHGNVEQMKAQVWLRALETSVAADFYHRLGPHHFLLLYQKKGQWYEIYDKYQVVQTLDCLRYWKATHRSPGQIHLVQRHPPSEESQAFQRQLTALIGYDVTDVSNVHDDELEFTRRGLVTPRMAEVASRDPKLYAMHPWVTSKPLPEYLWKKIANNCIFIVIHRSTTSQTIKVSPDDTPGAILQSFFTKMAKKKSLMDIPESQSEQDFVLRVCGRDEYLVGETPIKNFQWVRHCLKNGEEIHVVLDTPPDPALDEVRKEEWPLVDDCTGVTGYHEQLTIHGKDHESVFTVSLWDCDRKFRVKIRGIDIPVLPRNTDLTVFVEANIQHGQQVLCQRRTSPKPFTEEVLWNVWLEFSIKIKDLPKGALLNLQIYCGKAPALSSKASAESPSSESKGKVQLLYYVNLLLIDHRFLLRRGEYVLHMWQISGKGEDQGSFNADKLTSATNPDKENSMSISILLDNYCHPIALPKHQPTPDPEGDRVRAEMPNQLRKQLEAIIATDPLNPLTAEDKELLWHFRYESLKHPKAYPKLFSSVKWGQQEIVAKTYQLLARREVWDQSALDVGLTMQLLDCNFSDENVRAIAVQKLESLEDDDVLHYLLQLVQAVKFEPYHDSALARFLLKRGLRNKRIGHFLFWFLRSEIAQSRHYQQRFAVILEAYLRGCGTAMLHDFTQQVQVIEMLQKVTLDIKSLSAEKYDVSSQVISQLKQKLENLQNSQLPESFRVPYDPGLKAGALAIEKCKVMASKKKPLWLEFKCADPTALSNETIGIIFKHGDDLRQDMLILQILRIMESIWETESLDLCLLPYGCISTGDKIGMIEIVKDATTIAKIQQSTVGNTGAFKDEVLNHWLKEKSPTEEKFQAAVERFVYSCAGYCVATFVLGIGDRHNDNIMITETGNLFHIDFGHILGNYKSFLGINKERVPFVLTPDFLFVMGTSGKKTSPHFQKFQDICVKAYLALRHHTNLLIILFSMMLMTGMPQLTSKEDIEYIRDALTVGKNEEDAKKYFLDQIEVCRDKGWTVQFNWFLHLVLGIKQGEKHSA
UniProt Q9Y3R4, sequence (whole entry, looked up): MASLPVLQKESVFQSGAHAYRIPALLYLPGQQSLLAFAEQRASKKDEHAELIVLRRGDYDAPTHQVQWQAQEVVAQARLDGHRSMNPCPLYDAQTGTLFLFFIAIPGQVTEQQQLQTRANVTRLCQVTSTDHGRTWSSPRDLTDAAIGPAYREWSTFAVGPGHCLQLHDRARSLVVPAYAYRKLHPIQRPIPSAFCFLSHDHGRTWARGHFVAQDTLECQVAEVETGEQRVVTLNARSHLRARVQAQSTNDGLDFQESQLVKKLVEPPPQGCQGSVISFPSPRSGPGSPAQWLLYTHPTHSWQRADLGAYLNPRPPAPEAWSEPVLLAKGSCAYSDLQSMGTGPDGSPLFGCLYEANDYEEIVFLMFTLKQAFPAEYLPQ
UniProt Q62351, sequence (whole entry, looked up): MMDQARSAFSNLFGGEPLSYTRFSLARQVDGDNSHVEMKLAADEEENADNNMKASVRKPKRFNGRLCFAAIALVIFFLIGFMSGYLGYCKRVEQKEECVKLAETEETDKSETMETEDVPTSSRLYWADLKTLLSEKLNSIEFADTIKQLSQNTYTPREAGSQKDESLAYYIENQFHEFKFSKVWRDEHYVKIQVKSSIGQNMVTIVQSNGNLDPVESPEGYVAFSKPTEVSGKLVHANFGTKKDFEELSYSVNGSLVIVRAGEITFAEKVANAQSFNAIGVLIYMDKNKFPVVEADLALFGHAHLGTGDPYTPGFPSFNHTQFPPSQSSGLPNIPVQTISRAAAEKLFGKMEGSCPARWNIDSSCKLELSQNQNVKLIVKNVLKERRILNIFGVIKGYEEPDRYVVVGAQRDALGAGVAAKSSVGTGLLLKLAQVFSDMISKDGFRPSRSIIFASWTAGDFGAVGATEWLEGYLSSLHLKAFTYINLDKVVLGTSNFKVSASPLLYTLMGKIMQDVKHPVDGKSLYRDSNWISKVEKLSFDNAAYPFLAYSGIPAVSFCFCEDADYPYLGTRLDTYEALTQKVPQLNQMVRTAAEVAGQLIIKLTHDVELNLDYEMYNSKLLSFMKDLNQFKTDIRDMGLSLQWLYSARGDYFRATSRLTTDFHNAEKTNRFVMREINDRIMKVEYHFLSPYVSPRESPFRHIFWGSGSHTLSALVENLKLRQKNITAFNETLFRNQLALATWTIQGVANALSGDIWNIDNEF
UniProt P11388, sequence (whole entry, looked up): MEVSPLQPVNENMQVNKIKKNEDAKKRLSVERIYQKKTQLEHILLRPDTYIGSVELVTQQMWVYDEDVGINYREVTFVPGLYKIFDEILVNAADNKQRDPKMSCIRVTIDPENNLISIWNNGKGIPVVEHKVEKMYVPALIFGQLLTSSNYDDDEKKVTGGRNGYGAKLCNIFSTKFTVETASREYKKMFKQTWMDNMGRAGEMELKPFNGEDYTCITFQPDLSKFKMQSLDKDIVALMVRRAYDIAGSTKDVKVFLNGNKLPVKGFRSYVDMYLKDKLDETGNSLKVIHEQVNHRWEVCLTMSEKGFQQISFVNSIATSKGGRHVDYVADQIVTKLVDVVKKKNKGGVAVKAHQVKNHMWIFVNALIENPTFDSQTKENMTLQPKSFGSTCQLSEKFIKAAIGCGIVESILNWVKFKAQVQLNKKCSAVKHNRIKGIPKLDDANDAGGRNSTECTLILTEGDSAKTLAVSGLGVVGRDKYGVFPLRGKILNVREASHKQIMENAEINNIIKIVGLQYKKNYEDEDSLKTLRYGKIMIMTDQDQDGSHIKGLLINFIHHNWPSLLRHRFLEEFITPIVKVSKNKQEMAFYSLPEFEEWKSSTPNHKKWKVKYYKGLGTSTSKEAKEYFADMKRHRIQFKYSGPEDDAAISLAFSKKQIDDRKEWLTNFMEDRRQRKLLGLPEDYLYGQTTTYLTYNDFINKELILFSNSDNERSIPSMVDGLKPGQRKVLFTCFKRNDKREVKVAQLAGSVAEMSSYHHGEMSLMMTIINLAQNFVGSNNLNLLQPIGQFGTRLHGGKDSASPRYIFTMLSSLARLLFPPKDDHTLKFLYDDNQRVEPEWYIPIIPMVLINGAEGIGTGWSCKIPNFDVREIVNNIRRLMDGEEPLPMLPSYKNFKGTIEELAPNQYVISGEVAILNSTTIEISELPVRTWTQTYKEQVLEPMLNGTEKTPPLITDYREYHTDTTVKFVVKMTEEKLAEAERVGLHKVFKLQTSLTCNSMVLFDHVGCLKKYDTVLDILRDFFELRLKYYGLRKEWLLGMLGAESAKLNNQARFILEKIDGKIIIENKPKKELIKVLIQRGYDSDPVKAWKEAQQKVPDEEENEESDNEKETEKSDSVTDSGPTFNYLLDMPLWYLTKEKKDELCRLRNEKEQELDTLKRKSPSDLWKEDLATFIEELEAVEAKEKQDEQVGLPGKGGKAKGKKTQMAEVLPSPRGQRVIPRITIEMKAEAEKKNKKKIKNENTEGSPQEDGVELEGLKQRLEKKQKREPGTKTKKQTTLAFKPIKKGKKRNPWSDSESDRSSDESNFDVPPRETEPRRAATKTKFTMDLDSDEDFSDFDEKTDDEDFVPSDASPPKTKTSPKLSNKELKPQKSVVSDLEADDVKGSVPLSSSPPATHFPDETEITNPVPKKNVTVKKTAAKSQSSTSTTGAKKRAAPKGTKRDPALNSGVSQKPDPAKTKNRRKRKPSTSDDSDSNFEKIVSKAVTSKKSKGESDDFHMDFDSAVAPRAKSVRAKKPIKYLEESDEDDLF
UniProt P03146, sequence (whole entry, looked up): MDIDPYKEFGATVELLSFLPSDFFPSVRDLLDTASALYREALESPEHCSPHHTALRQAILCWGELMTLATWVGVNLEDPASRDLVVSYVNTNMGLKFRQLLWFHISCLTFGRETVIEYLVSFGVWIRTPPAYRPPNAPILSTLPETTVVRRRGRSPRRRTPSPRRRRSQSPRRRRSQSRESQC
UniProt P63079, sequence (whole entry, looked up): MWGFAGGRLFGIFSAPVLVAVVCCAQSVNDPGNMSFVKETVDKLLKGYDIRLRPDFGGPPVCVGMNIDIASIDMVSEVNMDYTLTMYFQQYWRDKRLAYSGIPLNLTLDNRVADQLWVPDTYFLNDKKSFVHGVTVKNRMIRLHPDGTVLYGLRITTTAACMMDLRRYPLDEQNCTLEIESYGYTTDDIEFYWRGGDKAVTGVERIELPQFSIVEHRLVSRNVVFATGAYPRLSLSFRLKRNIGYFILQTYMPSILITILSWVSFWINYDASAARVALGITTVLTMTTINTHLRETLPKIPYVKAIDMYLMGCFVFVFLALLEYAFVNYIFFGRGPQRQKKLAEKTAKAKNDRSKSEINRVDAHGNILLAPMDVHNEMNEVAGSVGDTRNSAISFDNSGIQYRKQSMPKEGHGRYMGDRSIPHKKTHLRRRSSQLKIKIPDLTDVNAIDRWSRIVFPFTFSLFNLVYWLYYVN
UniProt Q16611, sequence (whole entry, looked up): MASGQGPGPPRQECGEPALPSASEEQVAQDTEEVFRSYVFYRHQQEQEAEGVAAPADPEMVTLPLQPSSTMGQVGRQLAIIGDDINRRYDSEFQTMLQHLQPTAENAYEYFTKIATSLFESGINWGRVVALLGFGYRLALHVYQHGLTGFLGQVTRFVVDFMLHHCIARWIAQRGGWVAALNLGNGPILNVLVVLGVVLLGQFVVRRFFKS

SMILES | target | assay | test system | setting | scale | endpoint | result
CC[C@@H](C)[C@@H](NC(=O)[C@@H](Cc1ccc(O)cc1)NC(=O)[C@H]1CCCN1C(=O)[C@@H](CCCNC(=N)N)NC(=O)[C@H](N)Cc1c[nH]cn1)C(=O)N[C@H](C)C(=O)N[C@H](Cc1c[nH]cn1)C(=O)N[C@H](CCCNC(=N)N)C(=O)N[C@@H](C(=O)N[C@H](Cc1ccc(O)cc1)C(=O)N[C@H](CO)C(=O)N[C@H](Cc1ccccc1)C(N)=O)C(C)C | Transferrin receptor protein 1 (Tfrc, Mus musculus, UniProt Q62351) | flow cytometry | DC2.4 | 2 h, pH 7.4, unit not given | baseline: 0 h | surface TFRC expression | 0.851
CC(=O)N[C@H]1[C@H]([C@H](O)[C@H](O)CO)O[C@@](OC[C@H]2O[C@@H](Oc3ccc([N+](=O)[O-])cc3)[C@H](O)[C@@H](O)[C@H]2O)(C(=O)O)C[C@@H]1O | Sialidase-2 (Homo sapiens, UniProt Q9Y3R4) | substrate |  | 10 min, pH 5.0, 37 °C |  | kcat | 0.18 ± 0.01 s⁻¹
Cc1nc(NC(=O)N2CCC[C@H]2C(N)=O)sc1-c1ccnc(C(C)(C)C(F)(F)F)c1 | PIK3CG (Homo sapiens, UniProt P48736) | KINOMEscan |  | 10 µM |  | remaining binding | 0%
Cc1ncsc1-c1ccc(CNC(=O)[C@@H]2C[C@@H](O)CN2C(=O)[C@@H](NC(=O)C2(F)CC2)C(C)(C)C)c(OCCOc2ccc(CN3CCN(c4cc(-c5ccccc5O)nnc4N)CC3)cc2)c1 | SWI/SNF-related matrix-associated actin-dependent regulator of chromatin subfamily A member 4, bromodomain (SMARCA4, Homo sapiens, UniProt P51532) | ternary complex binding, TR-FRET competition |  | together with: VCB complex |  | cooperativity factor alpha | 11
CC[C@H](C)[C@H](NC(=O)[C@H](Cc1ccccc1)NC(=O)[C@H](CCC(=O)O)NC(=O)[C@H](CCCNC(=N)N)NC(=O)[C@H](C)NC(=O)[C@H](C)NC(=O)[C@H](CCC(N)=O)NC(=O)[C@H](CCC(=O)O)NC(=O)[C@H](CCC(=O)O)NC(=O)[C@H](CC(C)C)NC(=O)[C@H](Cc1ccc(O)cc1)NC(=O)[C@H](CO)NC(=O)[C@H](CO)NC(=O)[C@@H](NC(=O)[C@H](CC(=O)O)NC(=O)[C@H](CO)NC(=O)[C@@H](NC(=O)[C@H](Cc1ccccc1)NC(=O)[C@@H](NC(=O)CNC(=O)[C@H](CCC(=O)O)NC(=O)[C@H](C)NC(=O)CCc1cnc[nH]1)[C@@H](C)O)[C@@H](C)O)C(C)C)C(=O)N[C@@H](C)C(=O)N[C@@H](Cc1c[nH]c2ccccc12)C(=O)N[C@@H](CC(C)C)C(=O)N[C@H](C(=O)N[C@@H](CCCCNC(=O)COCCOCCNC(=O)COCCOCCNC(=O)CC[C@H](NC(=O)CCCCCCCCCCCCCCCCC(=O)O)C(=O)O)C(=O)NCC(=O)N[C@@H](CCCNC(=N)N)C(=O)N[C@@H](CCCCNc1c(NCCCCCN(O)C(=O)CCC(=O)NCCCCCN(O)C(=O)CCC(=O)NCCCCCN(O)C(C)=O)c(=O)c1=O)C(=O)NCC(=O)NCC(=O)N[C@@H](CO)C(=O)N[C@@H](CCCCNc1c(NCCCCCN(O)C(=O)CCC(=O)NCCCCCN(O)C(=O)CCC(=O)NCCCCCN(O)C(C)=O)c(=O)c1=O)C(=O)O)C(C)C | GLP1R | agonist, CRE luciferase reporter | BHK cells | metal-free DFO conjugate, together with: 0% HSA | baseline: parent peptide | fold potency loss | 3.9
CC[C@@H]1[C@H](F)C(=O)N[C@@H]1COc1nccc2cc(C(N)=O)c(OC)cc12 | PIK3CB (Homo sapiens, UniProt P42338) | ATP-site probe binding, ActivX profiling | THP-1 cell lysate | 0.2 mM |  | inhibition | -29.5%
CC[C@H](C)[C@H](NC(=O)[C@H](Cc1ccccc1)NC(=O)[C@H](CCC(=O)O)NC(=O)[C@H](CCCNC(=N)N)NC(=O)[C@H](C)NC(=O)[C@H](C)NC(=O)[C@H](CCC(N)=O)NC(=O)[C@H](CCC(=O)O)NC(=O)[C@H](CCC(=O)O)NC(=O)[C@H](CC(C)C)NC(=O)[C@H](Cc1ccc(O)cc1)NC(=O)[C@H](CO)NC(=O)[C@H](CO)NC(=O)[C@@H](NC(=O)[C@H](CC(=O)O)NC(=O)[C@H](CO)NC(=O)[C@@H](NC(=O)[C@H](Cc1ccccc1)NC(=O)[C@@H](NC(=O)CNC(=O)[C@H](CCC(=O)O)NC(=O)[C@H](C)NC(=O)CCc1cnc[nH]1)[C@@H](C)O)[C@@H](C)O)C(C)C)C(=O)N[C@@H](C)C(=O)N[C@@H](Cc1c[nH]c2ccccc12)C(=O)N[C@@H](CC(C)C)C(=O)N[C@H](C(=O)N[C@@H](CCCNC(=N)N)C(=O)NCC(=O)N[C@@H](CCCNC(=N)N)C(=O)N[C@@H](CCCCNC(=O)COCCOCCNC(=O)COCCOCCNC(=O)CC[C@H](NC(=O)CCCCCCCCCCCCCCCCC(=O)O)C(=O)O)C(=O)NCC(=O)NCC(=O)N[C@@H](CO)C(=O)N[C@@H](CCCCNc1c(NCCCCCN(O)C(=O)CCC(=O)NCCCCCN(O)C(=O)CCC(=O)NCCCCCN(O)C(C)=O)c(=O)c1=O)C(=O)N[C@@H](CCCCNc1c(NCCCCCN(O)C(=O)CCC(=O)NCCCCCN(O)C(=O)CCC(=O)NCCCCCN(O)C(C)=O)c(=O)c1=O)C(=O)O)C(C)C | GLP1R | agonist, CRE luciferase reporter | BHK cells | metal-free DFO conjugate, together with: 0% HSA | baseline: parent peptide | fold potency loss | 6.3
COc1cccc(-n2nc3c4cc(Cl)ccc4[nH]cc-3c2=O)c1 | Gamma-aminobutyric acid receptor subunit alpha-6/beta-3, with delta subunit (Gabra6/Gabrb3, Rattus norvegicus, UniProt P30191+P63079) | ion current, modulator, two-electrode voltage clamp |  | 1 µM, α6β3δ receptor, together with: GABA EC3-10 |  | efficacy | 118 ± 14.3%
O=S(=O)(O)C1CCNCC1 | SLC6A6 (Homo sapiens, UniProt P31641, Y138A) | binding, microscale thermophoresis |  | 3.91 µM, room temperature, together with: 50 nM labelled protein | higher = more binding | normalised MST signal | 0.0324
NC1CCN(S(=O)(=O)c2cc(C(=O)Nc3cc(F)c(F)c(F)c3)ccc2F)CC1 | Capsid protein (C, Hepatitis B virus genotype D subtype ayw, UniProt P03146) | surface plasmon resonance |  | 25 °C |  | kon | 66.9 M⁻¹ s⁻¹
Nc1nc2c(ncn2[C@@H]2O[C@H](COP(=O)(O)O)[C@@H](O)[C@H]2O)c(=O)[nH]1 | GUK1 (Homo sapiens, UniProt Q16774) | enzyme activity, NADH-coupled |  | 500 µM, together with: KCl 10 mM |  | reaction velocity | 0.113 µM/s and 0.1 µM/s and 0.104 µM/s
CO/N=C(\C(=O)N[C@@H]1C(=O)N2C(C(=O)[O-])=C(C[N+]3(C)CCCC3)CS[C@H]12)c1csc(N)n1 | beta-lactamase RAD-1 (Riemerella anatipestifer) | substrate, continuous spectrophotometric hydrolysis |  | 30 °C |  | Km | 603 ± 89 µM
O=c1nc(SCc2cc(F)cc(C(F)(F)F)c2)nc(SCc2ccc3sccc3c2)[nH]1 | TOP2A (Homo sapiens, UniProt P11388) | decatenation |  | 31.25 µM |  | mean decatenated DNA | 0.07%
CN1CCN(c2cc(-c3ccncc3)c(-c3ccc4ccccc4c3)nn2)CC1 | CASR (Homo sapiens, UniProt P41180) | agonist, FLIPR |  | 12.5 µM |  | activation | 1.8%
C[C@@H]1CCN(C(=O)CCl)[C@@H](C(N)=O)C1 | human NEDD9 full length | LC-MS/MS peptide mapping |  | 50 µM, 4 h |  | cysteine occupancy | 14%
NCC[C@H](O)C(=O)N[C@@H]1C[C@H](N)[C@@H](O[C@H]2O[C@H](CN)[C@@H](O)[C@H](O)[C@H]2O)[C@H](O)[C@H]1O[C@H]1O[C@H](CO)[C@@H](O)[C@H](N)[C@H]1O | Albumin (ALB, Bos taurus, UniProt P02769) | binding, tryptophan fluorescence quenching |  | pH 7.4, 283 K |  | ΔG° | -7.43 kcal/mol
CN1CCN(S(=O)(=O)c2ccc(-c3cnc(N)c(C(=O)Nc4cccnc4)n3)cc2)CC1 | NanoBiT HiBiT/LgBiT luciferase | inhibitor, HiBiT luminescence counterscreen | conditioned medium only | 1.66 µM, 24 h | baseline: vehicle | luminescence signal reduction | -3.6%
CC(NC(=O)CCCc1ccc2ccc3cccc4ccc1c2c34)C(=O)NO (centres unmarked) | HDAC8 (Homo sapiens, UniProt Q9BY41) | ITC | Tris-HCl buffer | 293 K |  | TΔS° | 6 kcal/mol
O=C(COP(=O)(O)O)[C@@H](O)[C@H](O)[C@H](O)COP(=O)(O)O | Adenine phosphoribosyltransferase (Homo sapiens, UniProt P07741) | thermal proteome profiling, measured: APRT | HepG2 cell lysate | concentration not given, 57 over 37 °C | baseline: compound over control | thermal stability ratio | 0.412 and 0.7 and 0.444
N#Cc1ccc(-c2ccc(Cn3cc(-c4ccc(-c5nc6cc(-c7ccccc7)ccn6c5Nc5ccc(C(=O)O)cc5)cc4)nn3)cc2)nc1 | TDP2 (Homo sapiens, UniProt O95551) |  |  |  | baseline: TDP1 IC50 over TDP2 IC50 | selectivity ratio | 8
CC[C@H](C)[C@H](NC(=O)[C@H](Cc1ccc(O)cc1)NC(=O)[C@@H](N)CCC(N)=O)C(=O)N[C@@H](CC(C)C)C(=O)N[C@@H](CC(N)=O)C(=O)N[C@@H](C)C(=O)N[C@@H](CC(N)=O)C(=O)N[C@@H](CC(N)=O)C(=O)N[C@@H](CC(C)C)C(=O)N[C@H](C(=O)N[C@H](C(=O)N[C@@H](CCC(N)=O)C(=O)N[C@@H](Cc1ccccc1)C(=O)N[C@H](C(=O)N[C@H](C(=O)N[C@@H](CCCNC(=N)N)C(=O)N[C@@H](CC(C)C)C(=O)N[C@@H](CO)C(=O)N[C@@H](C)C(=O)N[C@H](C(=O)O)C(C)C)[C@@H](C)O)[C@@H](C)O)[C@@H](C)CC)[C@@H](C)CC | ADP-F-actin (rabbit) | binding |  | 5 µM, 30 min, msfGFP-tagged peptide, together with: 3 µM ADP-F-actin |  | fraction bound to F-actin | ~60%
O=C(O)c1ccc(Nc2ncc3c(n2)-c2ccc(Cl)cc2C(c2c(F)cccc2F)=NC3)cc1 | BTK(h) | kinase activity |  | 1 µM |  | remaining activity | 90%
CC[C@H](C)[C@H](NC(=O)[C@H](Cc1ccccc1)NC(=O)[C@H](CCC(=O)O)NC(=O)[C@H](CCCNC(=N)N)NC(=O)[C@H](C)NC(=O)[C@H](C)NC(=O)[C@H](CCC(N)=O)NC(=O)[C@H](CCC(=O)O)NC(=O)[C@H](CCC(=O)O)NC(=O)[C@H](CC(C)C)NC(=O)[C@H](Cc1ccc(O)cc1)NC(=O)[C@H](CO)NC(=O)[C@H](CO)NC(=O)[C@H](CCCCNc1c(NCCCCCN(O)C(=O)CCC(=O)NCCCCCN(O)C(=O)CCC(=O)NCCCCCN(O)C(C)=O)c(=O)c1=O)NC(=O)[C@H](CC(=O)O)NC(=O)[C@H](CO)NC(=O)[C@@H](NC(=O)[C@H](Cc1ccccc1)NC(=O)[C@@H](NC(=O)CNC(=O)[C@H](CCC(=O)O)NC(=O)[C@H](C)NC(=O)CCc1cnc[nH]1)[C@@H](C)O)[C@@H](C)O)C(=O)N[C@@H](C)C(=O)N[C@@H](Cc1c[nH]c2ccccc12)C(=O)N[C@@H](CC(C)C)C(=O)N[C@H](C(=O)N[C@@H](CCCNC(=N)N)C(=O)NCC(=O)N[C@@H](CCCNC(=N)N)C(=O)N[C@@H](CCCCNC(=O)COCCOCCNC(=O)COCCOCCNC(=O)CC[C@H](NC(=O)CCCCCCCCCCCCCCCCC(=O)O)C(=O)O)C(=O)NCC(=O)NCC(=O)N[C@@H](CO)C(=O)N[C@@H](CCCCNc1c(NCCCCCN(O)C(=O)CCC(=O)NCCCCCN(O)C(=O)CCC(=O)NCCCCCN(O)C(C)=O)c(=O)c1=O)C(=O)O)C(C)C | GLP1R | agonist, CRE luciferase reporter | BHK cells | Zr-loaded DFO conjugate, together with: 0% HSA | baseline: parent peptide | fold potency loss | 28.9
CC[C@H](C)[C@H](NC(=O)[C@H](C)NC(=O)[C@H](CC(=O)O)NC(C)=O)C(=O)N[C@H](C(=O)N[C@@H](CCC(N)=O)C(=O)N[C@@H](CCSC)C(=O)N[C@H](C(=O)N[C@H](C(=O)N[C@@H](CCC(=O)O)C(=O)N[C@@H](CC(C)C)C(=O)N[C@@H](CC(C)C)C(=O)N[C@@H](CCCCN)C(=O)N[C@@H](CCCNC(=N)N)C(=O)N[C@H](C(=O)NCC(=O)N[C@@H](CC(=O)O)C(=O)N[C@@H](CCC(N)=O)C(=O)N[C@@H](Cc1c[nH]c2ccccc12)C(=O)N[C@@H](CCC(=O)O)C(=O)N[C@@H](CCC(=O)O)C(=O)N[C@@H](CCC(=O)O)C(=O)N[C@@H](CCC(N)=O)C(=O)N[C@@H](CO)C(=O)N[C@@H](CC(C)C)C(=O)N[C@@H](C)C(N)=O)C(C)C)C(C)C)[C@@H](C)CC)[C@@H](C)CC | BAK1 (Homo sapiens, UniProt Q16611) | binding, bio-layer interferometry |  | pH 7.5, 2% DMSO |  | kon | 387 M⁻¹ s⁻¹
N=C(N)Nc1nc2ccccc2[nH]1 | HVCN1 (Homo sapiens, UniProt Q96D96, F149W/F150A) | proton current, inhibitor, inside-out patch clamp |  |  |  | Hill coefficient | 0.92 ± 0.05
CCCCC[S+]([O-])c1n[nH]c(N)n1 (centres unmarked) | Transcription intermediary factor 1-alpha, PHD-bromodomain (TRIM24, Homo sapiens, UniProt O15164) | binding, affinity selection mass spectrometry |  |  | baseline: other proteins in batch | fold enrichment | 0.874
